Measurements of several laboratories.
Numbered parts are unrelated; each lists some results of a single study.
UniProt P07949, sequence (whole entry, looked up): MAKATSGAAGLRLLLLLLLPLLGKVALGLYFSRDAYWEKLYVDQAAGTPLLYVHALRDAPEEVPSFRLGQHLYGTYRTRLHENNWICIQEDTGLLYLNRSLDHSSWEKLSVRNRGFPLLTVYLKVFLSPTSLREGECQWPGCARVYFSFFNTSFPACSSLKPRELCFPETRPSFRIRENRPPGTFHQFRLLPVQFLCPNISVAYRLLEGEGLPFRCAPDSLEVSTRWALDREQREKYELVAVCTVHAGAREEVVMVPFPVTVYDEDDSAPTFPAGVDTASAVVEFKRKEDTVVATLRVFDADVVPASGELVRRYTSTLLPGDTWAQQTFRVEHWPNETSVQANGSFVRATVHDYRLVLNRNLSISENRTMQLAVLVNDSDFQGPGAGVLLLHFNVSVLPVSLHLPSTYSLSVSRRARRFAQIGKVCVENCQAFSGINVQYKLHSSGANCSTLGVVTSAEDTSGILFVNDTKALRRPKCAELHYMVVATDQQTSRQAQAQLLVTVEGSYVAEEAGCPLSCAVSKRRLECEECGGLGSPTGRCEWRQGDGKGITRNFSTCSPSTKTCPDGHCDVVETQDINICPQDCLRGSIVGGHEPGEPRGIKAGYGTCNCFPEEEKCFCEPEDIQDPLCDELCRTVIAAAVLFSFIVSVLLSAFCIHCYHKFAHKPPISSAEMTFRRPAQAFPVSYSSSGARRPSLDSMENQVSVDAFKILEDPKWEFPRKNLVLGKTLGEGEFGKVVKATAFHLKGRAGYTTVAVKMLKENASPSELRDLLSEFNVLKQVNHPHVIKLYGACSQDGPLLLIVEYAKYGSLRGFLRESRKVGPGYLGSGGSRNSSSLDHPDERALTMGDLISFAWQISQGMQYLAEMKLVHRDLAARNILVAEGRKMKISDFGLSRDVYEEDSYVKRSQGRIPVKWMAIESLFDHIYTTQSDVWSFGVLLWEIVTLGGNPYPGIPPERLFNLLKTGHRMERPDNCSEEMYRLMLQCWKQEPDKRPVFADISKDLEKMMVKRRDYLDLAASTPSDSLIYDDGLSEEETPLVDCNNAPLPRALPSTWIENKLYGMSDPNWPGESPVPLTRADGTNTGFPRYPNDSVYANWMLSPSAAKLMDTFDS
UniProt P51957, sequence (whole entry, looked up): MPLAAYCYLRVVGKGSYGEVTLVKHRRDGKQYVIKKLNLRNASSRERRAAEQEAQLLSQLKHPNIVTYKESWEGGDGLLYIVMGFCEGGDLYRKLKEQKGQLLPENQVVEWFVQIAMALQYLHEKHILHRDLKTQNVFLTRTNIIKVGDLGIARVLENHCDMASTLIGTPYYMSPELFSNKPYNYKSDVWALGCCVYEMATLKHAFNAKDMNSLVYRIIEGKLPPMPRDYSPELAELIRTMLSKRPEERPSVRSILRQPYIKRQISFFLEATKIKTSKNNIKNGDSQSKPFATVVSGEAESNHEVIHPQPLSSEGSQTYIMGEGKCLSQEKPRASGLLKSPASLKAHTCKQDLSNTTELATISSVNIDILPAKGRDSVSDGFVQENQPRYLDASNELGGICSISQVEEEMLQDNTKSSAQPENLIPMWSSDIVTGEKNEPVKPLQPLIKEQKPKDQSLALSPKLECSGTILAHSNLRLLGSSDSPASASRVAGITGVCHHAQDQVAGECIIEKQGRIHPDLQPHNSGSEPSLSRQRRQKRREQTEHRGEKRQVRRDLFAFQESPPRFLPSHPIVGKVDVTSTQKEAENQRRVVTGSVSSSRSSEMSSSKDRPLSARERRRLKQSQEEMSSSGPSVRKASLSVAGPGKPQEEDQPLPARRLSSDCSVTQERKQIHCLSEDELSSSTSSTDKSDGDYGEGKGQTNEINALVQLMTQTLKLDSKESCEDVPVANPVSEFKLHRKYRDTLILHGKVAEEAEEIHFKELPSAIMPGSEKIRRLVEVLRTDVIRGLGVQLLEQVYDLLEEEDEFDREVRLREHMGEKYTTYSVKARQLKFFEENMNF
UniProt O14730, sequence (whole entry, looked up): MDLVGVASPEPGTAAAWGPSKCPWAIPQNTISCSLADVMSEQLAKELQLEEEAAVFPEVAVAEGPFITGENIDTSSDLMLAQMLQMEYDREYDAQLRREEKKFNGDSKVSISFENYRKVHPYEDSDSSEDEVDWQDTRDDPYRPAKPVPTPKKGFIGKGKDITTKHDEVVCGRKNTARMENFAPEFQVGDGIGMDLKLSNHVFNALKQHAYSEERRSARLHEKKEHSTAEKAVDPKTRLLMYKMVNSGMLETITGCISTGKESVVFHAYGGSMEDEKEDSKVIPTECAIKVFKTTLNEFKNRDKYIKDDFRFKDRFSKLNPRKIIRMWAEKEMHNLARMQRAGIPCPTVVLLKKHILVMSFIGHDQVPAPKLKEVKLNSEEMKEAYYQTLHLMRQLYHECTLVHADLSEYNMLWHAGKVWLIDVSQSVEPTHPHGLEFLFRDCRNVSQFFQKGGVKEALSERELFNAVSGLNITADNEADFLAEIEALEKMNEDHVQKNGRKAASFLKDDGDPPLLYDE
UniProt P51817, sequence (whole entry, looked up): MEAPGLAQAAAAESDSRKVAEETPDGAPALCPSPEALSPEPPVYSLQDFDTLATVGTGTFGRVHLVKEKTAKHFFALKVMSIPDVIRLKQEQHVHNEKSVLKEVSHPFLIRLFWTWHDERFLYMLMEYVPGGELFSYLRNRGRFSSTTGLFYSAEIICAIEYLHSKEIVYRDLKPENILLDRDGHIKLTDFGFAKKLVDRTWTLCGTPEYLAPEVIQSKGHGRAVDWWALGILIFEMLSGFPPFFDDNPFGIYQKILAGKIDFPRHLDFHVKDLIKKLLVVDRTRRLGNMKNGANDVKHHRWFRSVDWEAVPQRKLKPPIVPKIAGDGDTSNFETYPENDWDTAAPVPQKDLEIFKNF

Sample 1
Compound: O=C(O)[C@@H]1[C@@H](Cn2nnc3ccccc3c2=O)CC[C@H]1C(=O)c1ccc(OCCC2CCOCC2)cc1
Read-out: cell-free assay
Technique: competition with immobilised ligand
Concentration: 1 µM
target | remaining binding [%]
Serine/threonine-protein kinase Nek4 (NEK4, Homo sapiens, UniProt P51957) | 56
Proto-oncogene tyrosine-protein kinase receptor Ret (RET, Homo sapiens, UniProt P07949) | 100
Tyrosine-protein kinase ABL1, phosphorylated (ABL1, Homo sapiens, UniProt P00519, M351T) | 95
cAMP-dependent protein kinase catalytic subunit PRKX (PRKX, Homo sapiens, UniProt P51817) | 100
Serine/threonine-protein kinase RIO3 (RIOK3, Homo sapiens, UniProt O14730) | 100
Receptor-type tyrosine-protein kinase FLT3 (FLT3, Homo sapiens, UniProt P36888, D835H) | 83

Sample 2
Target: Fragile X messenger ribonucleoprotein 1, C-terminal low-complexity region (Fmr1, Mus musculus, UniProt P35922)
Technique: RNA Bind-n-Seq
Form: RNA
Medium: in vitro
Concentration: 200 nM
Setting: whole 134-nt RNA, ends assumed
Together with: 150 mM KCl
Baseline: input library
Reading: higher = stronger binding
Constant ends, left off below: GGGAGUUCUACAGUCCGACGAUC … UGGAAUUCUCGGGUGUCAAGG
Strand | log2 enrichment
UUCAAAACAGAAUCCUUCCAGUCCUCUUCAGCGUUUAAUUCCAGGCUCAAACUUGGACAGUGAACCCAGAAUUCAAACAGAUAUACUAAA | 0.451
ACCAUGCAGGUGGGCAUCUUUGGGAAGUGGGGCAAGGGGGGGAUAGGGAGGGGGGUAACACUUUGAGAACAGGUGGUCCCAGGUCGUUUC | 0.63
UGCUGCUUUCUGCCUUGGUGGCAGGCAGAGAACUGUCUCGUACUAGAAUUCAAGGAGGAAAGAAGAAGAAAUAAAAGAAGCUGCUCCAUU | -1.15
UCAAGUCCUGUGCUACACAUCGUAUGUACCGAAUCGGGUUUGGGGUUUGGUUUGGAAAGUAUUAUGUUACGCCGUUCGGAUCUGCACUUC | -0.135
CUCAAGUCCUGUGCUACACAUCGUAUGUACCGAAUCGGAAAAAGGAAAGGUGGAAAGUAUUAUGUUACGCCGUUCGGAUCUGCACUUCCA | -0.419
ACCAUGCAGGUGGGCAUCUUUGGGAAGUGGGGCAAGGGGGGGAUAGGGAGGGGGAAAACACUUUGGGAACAGGUGGUCCCAGGUCGUUUC | 0.664
CCUCAAGUCCUGUGCUACACAUCGUAUGUACCGAAUCGGUUUGGUGGUUUGGAAAGUAUUAUGUUACGCCGUUCGGAUCUGCACUUCCAG | -0.2
CACAGACAACACGCACCCGCACAGACACAGAGGGAAGGGGUUGGGAUGGGGACAGGGUGCACAGCAGGGCGGGGUAGGACCCCAGCCCCU | 1.27

Sample 3
Target: Proto-oncogene tyrosine-protein kinase receptor Ret (RET, Homo sapiens, UniProt P07949)
Read-out: enzyme activity
Action: inhibitor
Concentration: 0.5 µM
Baseline: control
SMILES | remaining activity
Oc1cccc(-c2nc(N3CCOCC3)c3oc4ncccc4c3n2)c1 | 99.8%
N#Cc1cnc2cnc(NCc3cccnc3)cc2c1Nc1ccc(F)c(Cl)c1 | 107%
O=C1c2ccccc2-c2nc3nnnn3nc21 | 101%
CC(C)n1cnc2c(Nc3cccc(Cl)c3)nc(NCCO)nc21 | 82.9%
Cc1cc(Nc2cc(N3CCN(C)CC3)nc(Sc3ccc(NC(=O)C4CC4)cc3)n2)[nH]n1 | 3.91%
O=C1NC(=O)c2c1c1c3ccccc3[nH]c1c1[nH]c3cc(Br)ccc3c21 | 80.1%
NC(=O)c1cccc(-c2cc(Nc3ccc(OC(F)(F)F)cc3)ncn2)c1 | 105%
CC(C)N(CCC(=O)c1ccc2ccccc2c1)Cc1ccccc1 | 101%
FC(F)(F)c1ccc(/C=C/c2nc(COc3ccc(CCCCn4ccnn4)cc3)co2)cc1 | 101%
O=C(c1cc2cc(O)ccc2[nH]1)c1cc2cc(O)ccc2[nH]1 | 8.98%
c1cc(-c2cnn3cc(-c4ccc(OCCN5CCCCC5)cc4)cnc23)ccn1 | 32.2%
O=C1Nc2ccccc2/C1=C\c1c(Cl)[nH]c2ccccc12 | 93%
NC(=O)c1ccc(-c2nc(-c3ccc4c(c3)OCCO4)c(-c3ccccn3)[nH]2)cc1 | 97%

Further values, each from its own experiment
Technique: cross-linking MS
NIP7: NIP7 (Homo sapiens, UniProt Q9Y221)
Substance | partner | system | setting | quantity | value
NSA2 (Homo sapiens, UniProt O95478) | NIP7 | cell fractions | together with: DSSO | cross-linked residues | K134 to K100
NOC3L (Homo sapiens, UniProt Q8WTT2) | NIP7 | cell fractions | together with: DSSO | cross-linked residues | K616 to K100
HNRNPL (Homo sapiens, UniProt P14866) | HNRNPA2B1 (Homo sapiens, UniProt P22626) |  | hits only | interaction screen | cross-linked
RAD21 (Homo sapiens, UniProt O60216) | SMC3 (Homo sapiens, UniProt Q9UQE7) |  | hits only | interaction screen | cross-linked

Excerpt of the above (sample 2):
Strand | log2 enrichment
UUCAAAACAGAAUCCUUCCAGUCCUCUUCAGCGUUUAAUUCCAGGCUCAAACUUGGACAGUGAACCCAGAAUUCAAACAGAUAUACUAAA | 0.451
ACCAUGCAGGUGGGCAUCUUUGGGAAGUGGGGCAAGGGGGGGAUAGGGAGGGGGGUAACACUUUGAGAACAGGUGGUCCCAGGUCGUUUC | 0.63
UGCUGCUUUCUGCCUUGGUGGCAGGCAGAGAACUGUCUCGUACUAGAAUUCAAGGAGGAAAGAAGAAGAAAUAAAAGAAGCUGCUCCAUU | -1.15
